Experimental data collected from several papers.
Parts stem from different laboratories: compare values within a part only. “And” joins repeats or separate records; there may be more than shown.
UniProt P27037, sequence (whole entry, looked up): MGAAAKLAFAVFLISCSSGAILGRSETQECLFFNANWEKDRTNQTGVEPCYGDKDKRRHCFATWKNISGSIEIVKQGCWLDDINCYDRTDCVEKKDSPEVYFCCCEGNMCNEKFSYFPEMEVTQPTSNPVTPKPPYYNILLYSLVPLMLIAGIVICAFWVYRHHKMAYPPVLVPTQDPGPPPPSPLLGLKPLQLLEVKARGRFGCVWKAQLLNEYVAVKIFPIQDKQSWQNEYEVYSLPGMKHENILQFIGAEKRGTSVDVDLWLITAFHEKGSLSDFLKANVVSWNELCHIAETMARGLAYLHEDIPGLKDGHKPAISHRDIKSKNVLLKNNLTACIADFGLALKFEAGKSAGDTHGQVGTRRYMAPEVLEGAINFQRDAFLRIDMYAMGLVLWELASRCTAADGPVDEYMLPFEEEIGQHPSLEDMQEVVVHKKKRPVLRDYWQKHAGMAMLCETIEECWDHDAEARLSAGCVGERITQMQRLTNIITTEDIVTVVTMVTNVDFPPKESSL
UniProt Q9UL54, sequence (whole entry, looked up): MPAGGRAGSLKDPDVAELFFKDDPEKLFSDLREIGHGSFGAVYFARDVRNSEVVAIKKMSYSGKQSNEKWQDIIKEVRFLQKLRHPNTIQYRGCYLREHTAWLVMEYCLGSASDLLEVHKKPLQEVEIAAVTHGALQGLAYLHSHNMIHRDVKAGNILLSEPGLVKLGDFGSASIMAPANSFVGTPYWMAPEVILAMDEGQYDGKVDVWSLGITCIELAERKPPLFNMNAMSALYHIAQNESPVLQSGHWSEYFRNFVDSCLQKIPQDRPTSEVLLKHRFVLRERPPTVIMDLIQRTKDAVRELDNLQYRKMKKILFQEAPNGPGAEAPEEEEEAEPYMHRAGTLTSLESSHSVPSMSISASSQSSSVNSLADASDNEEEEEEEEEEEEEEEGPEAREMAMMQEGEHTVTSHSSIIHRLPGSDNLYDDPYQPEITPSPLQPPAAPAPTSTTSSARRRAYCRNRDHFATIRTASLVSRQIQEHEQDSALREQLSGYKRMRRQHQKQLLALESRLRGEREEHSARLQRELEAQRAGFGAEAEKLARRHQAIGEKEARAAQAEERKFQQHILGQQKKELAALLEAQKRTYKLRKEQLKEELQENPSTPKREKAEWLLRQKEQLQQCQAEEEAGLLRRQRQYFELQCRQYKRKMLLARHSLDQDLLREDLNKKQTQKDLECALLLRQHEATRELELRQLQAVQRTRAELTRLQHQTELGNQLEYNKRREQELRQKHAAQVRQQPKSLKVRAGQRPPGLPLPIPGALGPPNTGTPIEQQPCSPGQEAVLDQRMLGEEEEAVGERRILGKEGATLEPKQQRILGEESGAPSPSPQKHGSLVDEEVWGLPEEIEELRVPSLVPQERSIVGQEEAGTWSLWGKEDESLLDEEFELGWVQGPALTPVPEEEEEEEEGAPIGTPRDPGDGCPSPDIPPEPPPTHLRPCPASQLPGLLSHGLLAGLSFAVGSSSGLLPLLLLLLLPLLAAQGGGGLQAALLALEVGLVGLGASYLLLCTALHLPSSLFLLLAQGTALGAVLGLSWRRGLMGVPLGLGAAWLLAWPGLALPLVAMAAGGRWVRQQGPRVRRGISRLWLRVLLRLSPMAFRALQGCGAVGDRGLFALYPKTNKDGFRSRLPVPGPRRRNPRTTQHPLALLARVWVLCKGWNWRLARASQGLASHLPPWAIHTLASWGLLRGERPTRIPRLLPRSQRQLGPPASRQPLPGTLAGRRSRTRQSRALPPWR
UniProt Q8NFD2, sequence (whole entry, looked up): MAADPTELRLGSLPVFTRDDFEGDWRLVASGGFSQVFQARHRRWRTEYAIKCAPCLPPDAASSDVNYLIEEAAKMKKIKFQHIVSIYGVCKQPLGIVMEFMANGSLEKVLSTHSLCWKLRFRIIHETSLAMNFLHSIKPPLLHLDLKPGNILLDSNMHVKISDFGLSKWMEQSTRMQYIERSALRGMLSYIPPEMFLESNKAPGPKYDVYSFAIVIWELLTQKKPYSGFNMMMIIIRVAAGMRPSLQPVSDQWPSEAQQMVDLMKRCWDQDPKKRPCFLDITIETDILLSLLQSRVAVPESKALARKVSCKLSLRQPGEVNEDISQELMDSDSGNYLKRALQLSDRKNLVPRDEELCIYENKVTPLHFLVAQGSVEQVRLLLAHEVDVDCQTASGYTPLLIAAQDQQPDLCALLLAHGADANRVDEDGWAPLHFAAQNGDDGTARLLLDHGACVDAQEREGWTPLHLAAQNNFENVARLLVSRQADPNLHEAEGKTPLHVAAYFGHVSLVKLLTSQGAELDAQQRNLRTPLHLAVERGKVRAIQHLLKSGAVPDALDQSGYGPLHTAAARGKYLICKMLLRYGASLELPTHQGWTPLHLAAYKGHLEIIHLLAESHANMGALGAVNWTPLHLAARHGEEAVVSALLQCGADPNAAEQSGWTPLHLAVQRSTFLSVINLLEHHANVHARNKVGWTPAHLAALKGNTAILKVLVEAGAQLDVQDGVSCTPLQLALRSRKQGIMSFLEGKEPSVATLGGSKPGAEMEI
UniProt P35968, sequence (whole entry, looked up): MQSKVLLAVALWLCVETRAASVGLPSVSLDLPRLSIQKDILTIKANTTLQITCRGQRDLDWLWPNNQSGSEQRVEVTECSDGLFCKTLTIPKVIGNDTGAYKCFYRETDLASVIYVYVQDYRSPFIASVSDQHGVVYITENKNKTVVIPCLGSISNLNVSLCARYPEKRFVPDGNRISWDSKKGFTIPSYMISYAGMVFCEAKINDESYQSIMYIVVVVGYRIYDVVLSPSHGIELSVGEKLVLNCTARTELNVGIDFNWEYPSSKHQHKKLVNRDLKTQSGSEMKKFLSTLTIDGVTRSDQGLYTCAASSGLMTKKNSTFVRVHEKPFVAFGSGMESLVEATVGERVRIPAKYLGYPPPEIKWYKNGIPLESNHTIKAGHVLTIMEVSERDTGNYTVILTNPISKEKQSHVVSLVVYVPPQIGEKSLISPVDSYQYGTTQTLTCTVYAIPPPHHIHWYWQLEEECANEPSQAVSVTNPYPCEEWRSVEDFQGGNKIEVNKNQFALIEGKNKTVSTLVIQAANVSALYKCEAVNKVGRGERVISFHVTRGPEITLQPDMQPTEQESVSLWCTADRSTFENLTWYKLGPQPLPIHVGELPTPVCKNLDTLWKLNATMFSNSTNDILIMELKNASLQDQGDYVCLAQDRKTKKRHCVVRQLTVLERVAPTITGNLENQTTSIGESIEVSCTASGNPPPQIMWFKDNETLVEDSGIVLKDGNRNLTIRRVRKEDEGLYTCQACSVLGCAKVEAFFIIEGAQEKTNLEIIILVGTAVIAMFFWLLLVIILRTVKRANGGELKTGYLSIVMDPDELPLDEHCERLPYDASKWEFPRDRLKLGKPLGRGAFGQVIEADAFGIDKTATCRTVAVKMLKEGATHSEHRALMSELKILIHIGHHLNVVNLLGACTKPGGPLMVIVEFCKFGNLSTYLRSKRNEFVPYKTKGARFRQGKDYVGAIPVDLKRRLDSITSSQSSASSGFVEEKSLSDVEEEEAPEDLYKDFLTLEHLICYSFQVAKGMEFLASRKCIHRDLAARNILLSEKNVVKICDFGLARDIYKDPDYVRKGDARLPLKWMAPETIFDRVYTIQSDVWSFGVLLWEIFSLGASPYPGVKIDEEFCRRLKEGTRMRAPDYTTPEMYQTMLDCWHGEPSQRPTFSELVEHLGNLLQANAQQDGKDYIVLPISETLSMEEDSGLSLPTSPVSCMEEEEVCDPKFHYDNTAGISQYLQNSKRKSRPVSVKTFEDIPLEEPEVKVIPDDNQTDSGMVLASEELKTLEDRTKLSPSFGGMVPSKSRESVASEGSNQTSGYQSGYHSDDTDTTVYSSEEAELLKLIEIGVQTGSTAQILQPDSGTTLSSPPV
UniProt Q6PHR2, sequence (whole entry, looked up): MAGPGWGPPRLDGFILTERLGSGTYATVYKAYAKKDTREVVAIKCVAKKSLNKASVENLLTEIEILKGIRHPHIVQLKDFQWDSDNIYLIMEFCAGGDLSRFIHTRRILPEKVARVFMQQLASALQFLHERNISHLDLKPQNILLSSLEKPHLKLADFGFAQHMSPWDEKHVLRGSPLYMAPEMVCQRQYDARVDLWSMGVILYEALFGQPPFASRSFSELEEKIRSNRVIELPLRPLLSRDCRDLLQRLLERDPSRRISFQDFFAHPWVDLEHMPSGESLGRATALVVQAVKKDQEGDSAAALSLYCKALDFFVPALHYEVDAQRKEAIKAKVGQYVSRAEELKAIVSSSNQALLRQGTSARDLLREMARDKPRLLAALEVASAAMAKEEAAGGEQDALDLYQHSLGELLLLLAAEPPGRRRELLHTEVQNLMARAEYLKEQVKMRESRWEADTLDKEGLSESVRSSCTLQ

Set 1
Target: Serine/threonine-protein kinase 33 (STK33, Homo sapiens, UniProt Q9BYT3)
UniProt Q9BYT3, sequence (whole entry, looked up): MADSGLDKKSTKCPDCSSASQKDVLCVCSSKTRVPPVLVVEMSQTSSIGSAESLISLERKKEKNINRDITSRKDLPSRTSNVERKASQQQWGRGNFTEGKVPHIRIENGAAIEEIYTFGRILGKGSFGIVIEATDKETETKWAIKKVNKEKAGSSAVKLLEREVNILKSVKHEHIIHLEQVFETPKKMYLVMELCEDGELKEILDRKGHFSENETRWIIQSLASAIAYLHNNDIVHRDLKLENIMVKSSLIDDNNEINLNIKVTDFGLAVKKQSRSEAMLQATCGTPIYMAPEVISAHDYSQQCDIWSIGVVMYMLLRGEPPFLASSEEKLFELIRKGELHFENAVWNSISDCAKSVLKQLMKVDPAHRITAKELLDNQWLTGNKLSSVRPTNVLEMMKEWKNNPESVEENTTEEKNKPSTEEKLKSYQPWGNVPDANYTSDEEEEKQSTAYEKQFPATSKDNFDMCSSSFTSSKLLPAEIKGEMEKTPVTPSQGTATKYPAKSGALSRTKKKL
Observed: enzyme activity
Mode: inhibitor
Technique: radiometric
Concentration: 0.5 µM
Compound	remaining activity [%]
O=S(=O)(c1cccc2cnccc12)N1CCCNCC1	90.3
N#CCCc1ccc2c(c1)-c1[nH]c3ccc([N+](=O)[O-])cc3c1CC(=O)N2	78.8
COc1ccc(OC)c2c(=S)c3ccccc3[nH]c12	98.4
Cc1ccc(NC(=O)c2ccc(CN3CCN(C)CC3)cc2)cc1Nc1nc(-c2cccnc2)cs1	91.1
Cc1cccc(-c2[nH]c(C(C)(C)C)nc2-c2ccc3c(c2)OCO3)n1	89
O=C(O)c1ccc2c3c1cccc3c(=O)n1c3ccccc3nc21	78.8
Cn1c2ccccc2c2c3c(c4c5ccccc5n(CCC#N)c4c21)CNC3=O	26.5
O=c1c2ccccc2[nH]c(=S)n1CCN1CCC(=C(c2ccc(F)cc2)c2ccc(F)cc2)CC1	106

Set 2
SMILES: N#CC1(c2ccccn2)CCN(Cc2cc(C(=O)O)c(=O)n3ccccc23)CC1
Technique: competition with immobilised ligand
Concentration: 1 µM
target	assay	remaining binding [%]
PIK3CA (Homo sapiens, UniProt P42336, I800L)	cell-free assay	90
NEK10 (Homo sapiens, UniProt Q6ZWH5)	cell-free assay	93
MAP4K1 (Homo sapiens, UniProt Q92918)	cell-free assay	100
ACVR2A (Homo sapiens, UniProt P27037)	cell-free assay	95
TAOK2 (Homo sapiens, UniProt Q9UL54)	cell-free assay	97
GAK (Homo sapiens, UniProt O14976)	cell-free assay	100
PRKCI (Homo sapiens, UniProt P41743)	cell-free assay	100
ANKK1 (Homo sapiens, UniProt Q8NFD2)	cell-free assay	68
ACVRL1 (Homo sapiens, UniProt P37023)	binding	95
DMPK (Homo sapiens, UniProt Q09013)	cell-free assay	97
KDR (Homo sapiens, UniProt P35968)	cell-free assay	79
WEE1 (Homo sapiens, UniProt P30291)	cell-free assay	99
MAP3K12 (Homo sapiens, UniProt Q12852)	cell-free assay	93
PRKCE (Homo sapiens, UniProt Q02156)	cell-free assay	100
ULK3 (Homo sapiens, UniProt Q6PHR2)	cell-free assay	89

Set 3
Cell line: HEK-293T/ACE2
Concentration: concentration not given
Time: 16 (unit not given)
Relative to: vehicle
Compound	viability [%]
CN1CCN2c3ncccc3Cc3ccccc3C2C1 (stereo not drawn)	102
CC(C)(C#N)c1cc(Cn2cncn2)cc(C(C)(C)C#N)c1	99.5
COc1cc(Nc2c(C#N)cnc3cc(OCCCN4CCN(C)CC4)c(OC)cc23)c(Cl)cc1Cl	83.5
CCCCC[C@H](O)/C=C/[C@H]1[C@H](O)CC(=O)[C@@H]1CCCCCCC(=O)O	102
Cc1cccc(C)c1OCC(=O)N[C@@H](Cc1ccccc1)[C@@H](O)C[C@H](Cc1ccccc1)NC(=O)[C@H](C(C)C)N1CCCNC1=O	103

Set 4
Cell line: mouse MPNST tumor cells
Technique: high-content nuclear imaging
Measured: cell number
Concentration: 10 µM
Time: 12 h
Setting: mean of 2 replicates
Relative to: plate mean
Reading: higher = more cells
Structure (SMILES)	nuclei count
CC[C@@H](CO)NC(=O)[C@@H]1C=C2c3cccc4[nH]cc(c34)C[C@H]2N(C)C1	0.961 z-score
c1ccc([C@@H]2C[C@H]2NC2CCNCC2)cc1	0.832 z-score and 1.77 z-score
Oc1ccc2c3c1O[C@H]1c4oc5ccccc5c4C[C@@]4(O)[C@@H](C2)N(CC2CC2)CC[C@]314	0.676 z-score
Cc1cc(Cl)ccc1OCCNC(=O)c1cccs1	3.11 z-score
O=C(N[C@H]1CN2CCC1CC2)c1ccc(Cl)cc1	2.01 z-score
Oc1ccc2c3c1O[C@H]1[C@@H](O)CC[C@@]4(O)[C@@H](C2)N(CC2CCC2)CC[C@]314	2.42 z-score
Clc1ccc(C(OCCN2CCCCC2)c2ccccc2)cc1 (stereo not drawn)	-1.77 z-score
C#C[C@]1(O)CC[C@H]2[C@@H]3CCC4=CC(=O)CCC4=C3C=C[C@@]21CC	3.67 z-score

For quick reference, copied from above (set 3):
Compound	viability [%]
CN1CCN2c3ncccc3Cc3ccccc3C2C1 (stereo not drawn)	102
CC(C)(C#N)c1cc(Cn2cncn2)cc(C(C)(C)C#N)c1	99.5
COc1cc(Nc2c(C#N)cnc3cc(OCCCN4CCN(C)CC4)c(OC)cc23)c(Cl)cc1Cl	83.5
CCCCC[C@H](O)/C=C/[C@H]1[C@H](O)CC(=O)[C@@H]1CCCCCCC(=O)O	102
